# Measurements of several laboratories.
# Sequences of proteins named here, by UniProt entry; tags and fusion partners are left off. Residues count along the entry.
# UniProt Q14833, 33-912 limits assumed: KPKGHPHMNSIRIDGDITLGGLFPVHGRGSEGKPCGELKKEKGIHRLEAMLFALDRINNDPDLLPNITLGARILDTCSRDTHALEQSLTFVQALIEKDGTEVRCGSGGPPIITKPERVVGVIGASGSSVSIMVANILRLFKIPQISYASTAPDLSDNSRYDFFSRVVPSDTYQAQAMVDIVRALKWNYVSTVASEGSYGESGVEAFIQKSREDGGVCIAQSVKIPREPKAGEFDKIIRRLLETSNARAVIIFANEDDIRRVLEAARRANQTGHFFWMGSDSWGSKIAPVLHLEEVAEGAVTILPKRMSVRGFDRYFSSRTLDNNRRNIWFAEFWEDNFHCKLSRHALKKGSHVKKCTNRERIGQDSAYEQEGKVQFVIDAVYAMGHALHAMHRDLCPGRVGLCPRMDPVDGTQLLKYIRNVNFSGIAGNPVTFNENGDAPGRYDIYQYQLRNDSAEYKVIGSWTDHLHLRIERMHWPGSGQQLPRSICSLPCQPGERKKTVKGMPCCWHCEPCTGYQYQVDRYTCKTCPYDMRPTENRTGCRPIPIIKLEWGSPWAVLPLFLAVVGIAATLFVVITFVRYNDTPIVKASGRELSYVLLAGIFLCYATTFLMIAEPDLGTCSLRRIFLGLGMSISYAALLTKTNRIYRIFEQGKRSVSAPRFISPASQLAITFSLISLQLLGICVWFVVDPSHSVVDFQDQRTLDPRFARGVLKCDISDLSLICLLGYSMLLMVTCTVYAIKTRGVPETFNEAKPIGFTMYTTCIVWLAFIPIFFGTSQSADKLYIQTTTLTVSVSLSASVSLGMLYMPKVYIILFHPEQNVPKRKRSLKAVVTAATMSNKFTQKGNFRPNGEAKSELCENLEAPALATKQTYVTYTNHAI
# UniProt P46934, whole entry, looked up: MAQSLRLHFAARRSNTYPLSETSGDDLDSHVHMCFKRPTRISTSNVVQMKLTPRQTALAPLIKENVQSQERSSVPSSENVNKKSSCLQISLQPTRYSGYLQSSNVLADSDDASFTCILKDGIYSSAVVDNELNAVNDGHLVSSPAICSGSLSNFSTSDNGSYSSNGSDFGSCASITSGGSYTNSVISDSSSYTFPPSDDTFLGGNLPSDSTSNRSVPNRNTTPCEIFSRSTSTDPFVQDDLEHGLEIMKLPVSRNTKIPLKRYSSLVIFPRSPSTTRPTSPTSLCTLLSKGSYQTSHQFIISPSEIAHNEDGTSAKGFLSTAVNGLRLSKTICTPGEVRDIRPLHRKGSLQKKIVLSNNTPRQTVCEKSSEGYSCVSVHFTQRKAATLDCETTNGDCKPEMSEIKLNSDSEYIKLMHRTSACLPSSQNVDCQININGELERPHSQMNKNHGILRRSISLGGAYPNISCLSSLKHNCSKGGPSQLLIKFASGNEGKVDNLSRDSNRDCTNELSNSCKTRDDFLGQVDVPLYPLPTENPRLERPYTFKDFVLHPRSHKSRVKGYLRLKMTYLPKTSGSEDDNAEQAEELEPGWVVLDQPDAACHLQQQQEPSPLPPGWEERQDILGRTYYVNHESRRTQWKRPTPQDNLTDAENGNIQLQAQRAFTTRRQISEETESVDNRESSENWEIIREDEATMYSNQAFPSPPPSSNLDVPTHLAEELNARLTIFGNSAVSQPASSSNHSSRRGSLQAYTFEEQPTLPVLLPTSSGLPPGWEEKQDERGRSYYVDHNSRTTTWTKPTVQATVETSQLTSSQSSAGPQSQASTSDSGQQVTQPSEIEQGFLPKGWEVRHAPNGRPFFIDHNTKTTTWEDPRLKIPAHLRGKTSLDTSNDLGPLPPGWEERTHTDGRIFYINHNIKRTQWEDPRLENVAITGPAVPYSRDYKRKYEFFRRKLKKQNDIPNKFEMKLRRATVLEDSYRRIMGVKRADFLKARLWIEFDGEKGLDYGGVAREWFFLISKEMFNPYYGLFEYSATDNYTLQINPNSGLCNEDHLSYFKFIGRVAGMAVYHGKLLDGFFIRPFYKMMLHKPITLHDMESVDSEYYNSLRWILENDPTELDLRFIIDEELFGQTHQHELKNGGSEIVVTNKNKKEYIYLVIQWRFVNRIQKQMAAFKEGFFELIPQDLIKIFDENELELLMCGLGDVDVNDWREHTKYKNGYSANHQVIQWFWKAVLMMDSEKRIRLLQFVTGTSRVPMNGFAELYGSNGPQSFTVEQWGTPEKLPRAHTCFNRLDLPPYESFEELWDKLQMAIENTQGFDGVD
# UniProt P30291, whole entry: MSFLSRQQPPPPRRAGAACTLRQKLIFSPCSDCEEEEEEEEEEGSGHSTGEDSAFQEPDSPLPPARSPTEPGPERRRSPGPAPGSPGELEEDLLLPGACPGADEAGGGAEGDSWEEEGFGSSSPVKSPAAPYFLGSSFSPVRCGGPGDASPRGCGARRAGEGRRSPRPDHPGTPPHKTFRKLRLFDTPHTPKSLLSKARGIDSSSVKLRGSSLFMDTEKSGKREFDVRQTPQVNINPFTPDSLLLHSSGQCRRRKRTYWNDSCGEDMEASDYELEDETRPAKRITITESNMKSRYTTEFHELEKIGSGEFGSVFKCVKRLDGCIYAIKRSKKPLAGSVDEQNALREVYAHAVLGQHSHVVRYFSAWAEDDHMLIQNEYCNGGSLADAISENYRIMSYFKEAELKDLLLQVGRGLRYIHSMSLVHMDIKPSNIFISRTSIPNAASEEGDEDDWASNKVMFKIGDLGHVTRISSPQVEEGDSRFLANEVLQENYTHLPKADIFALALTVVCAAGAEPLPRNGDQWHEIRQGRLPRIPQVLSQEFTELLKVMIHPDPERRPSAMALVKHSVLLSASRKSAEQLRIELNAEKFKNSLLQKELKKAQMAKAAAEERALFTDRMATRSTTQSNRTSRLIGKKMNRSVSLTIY
# UniProt Q96SW2, whole entry: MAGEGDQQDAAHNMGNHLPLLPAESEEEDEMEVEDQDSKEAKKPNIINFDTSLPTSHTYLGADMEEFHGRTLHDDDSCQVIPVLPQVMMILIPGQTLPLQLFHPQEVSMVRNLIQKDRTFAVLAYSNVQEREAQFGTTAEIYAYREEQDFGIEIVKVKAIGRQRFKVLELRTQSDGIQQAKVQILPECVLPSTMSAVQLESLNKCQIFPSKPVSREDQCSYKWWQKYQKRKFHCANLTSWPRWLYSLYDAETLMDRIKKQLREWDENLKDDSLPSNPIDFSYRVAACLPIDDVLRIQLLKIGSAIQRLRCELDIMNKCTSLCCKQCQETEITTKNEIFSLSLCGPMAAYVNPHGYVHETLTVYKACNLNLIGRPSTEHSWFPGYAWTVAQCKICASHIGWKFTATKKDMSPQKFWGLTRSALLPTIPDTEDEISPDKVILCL
# UniProt Q9GZT9, whole entry: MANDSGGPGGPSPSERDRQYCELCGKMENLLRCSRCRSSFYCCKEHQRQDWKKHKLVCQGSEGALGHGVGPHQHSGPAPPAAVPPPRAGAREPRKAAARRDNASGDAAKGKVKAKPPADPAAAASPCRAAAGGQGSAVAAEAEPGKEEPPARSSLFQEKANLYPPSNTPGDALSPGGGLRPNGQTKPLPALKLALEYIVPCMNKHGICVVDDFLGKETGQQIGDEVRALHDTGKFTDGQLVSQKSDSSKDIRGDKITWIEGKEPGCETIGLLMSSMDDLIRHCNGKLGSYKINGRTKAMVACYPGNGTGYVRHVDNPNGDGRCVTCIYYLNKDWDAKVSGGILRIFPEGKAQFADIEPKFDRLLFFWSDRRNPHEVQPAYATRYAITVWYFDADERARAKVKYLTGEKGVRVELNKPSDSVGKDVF
# UniProt Q5VWZ2, whole entry: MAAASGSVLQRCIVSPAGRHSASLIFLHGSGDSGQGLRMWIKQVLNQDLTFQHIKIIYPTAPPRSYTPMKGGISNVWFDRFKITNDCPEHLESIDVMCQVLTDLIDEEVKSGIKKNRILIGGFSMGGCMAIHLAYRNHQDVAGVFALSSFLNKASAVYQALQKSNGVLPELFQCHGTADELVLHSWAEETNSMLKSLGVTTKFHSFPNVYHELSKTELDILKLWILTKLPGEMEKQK
# UniProt P22455, 467-755 N535K limits assumed: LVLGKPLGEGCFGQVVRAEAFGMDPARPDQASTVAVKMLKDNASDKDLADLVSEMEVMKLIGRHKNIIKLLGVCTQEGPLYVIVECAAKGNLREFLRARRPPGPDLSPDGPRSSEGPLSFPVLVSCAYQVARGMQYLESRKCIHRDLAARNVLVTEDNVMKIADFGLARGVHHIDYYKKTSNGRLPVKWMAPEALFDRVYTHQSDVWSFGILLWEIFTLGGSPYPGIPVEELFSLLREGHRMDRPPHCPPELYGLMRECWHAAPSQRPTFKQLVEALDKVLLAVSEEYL
# UniProt P05067, 672-713 limits assumed: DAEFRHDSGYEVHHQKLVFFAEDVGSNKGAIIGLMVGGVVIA
# UniProt P05067, whole entry, looked up: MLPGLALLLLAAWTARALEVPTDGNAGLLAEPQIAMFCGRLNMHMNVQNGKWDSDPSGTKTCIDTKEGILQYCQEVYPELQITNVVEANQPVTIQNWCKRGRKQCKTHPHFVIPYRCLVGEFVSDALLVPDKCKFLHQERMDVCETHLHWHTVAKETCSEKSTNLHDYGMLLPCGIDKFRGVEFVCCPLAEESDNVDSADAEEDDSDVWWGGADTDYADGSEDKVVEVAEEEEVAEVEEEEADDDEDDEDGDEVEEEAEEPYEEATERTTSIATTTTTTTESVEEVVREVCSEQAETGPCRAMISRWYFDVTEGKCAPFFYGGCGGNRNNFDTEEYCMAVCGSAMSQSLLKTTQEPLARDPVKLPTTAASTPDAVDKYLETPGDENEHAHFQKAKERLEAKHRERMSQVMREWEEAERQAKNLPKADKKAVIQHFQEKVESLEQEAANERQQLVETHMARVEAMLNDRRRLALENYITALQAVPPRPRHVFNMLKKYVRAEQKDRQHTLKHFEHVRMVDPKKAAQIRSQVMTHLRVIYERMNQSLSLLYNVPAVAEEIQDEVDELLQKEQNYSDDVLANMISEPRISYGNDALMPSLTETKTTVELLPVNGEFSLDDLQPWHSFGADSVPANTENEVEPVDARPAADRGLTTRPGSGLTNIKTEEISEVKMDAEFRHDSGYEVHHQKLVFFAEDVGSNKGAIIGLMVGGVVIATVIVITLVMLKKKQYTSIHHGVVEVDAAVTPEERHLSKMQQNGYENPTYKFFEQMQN
# UniProt P35222, whole entry, looked up: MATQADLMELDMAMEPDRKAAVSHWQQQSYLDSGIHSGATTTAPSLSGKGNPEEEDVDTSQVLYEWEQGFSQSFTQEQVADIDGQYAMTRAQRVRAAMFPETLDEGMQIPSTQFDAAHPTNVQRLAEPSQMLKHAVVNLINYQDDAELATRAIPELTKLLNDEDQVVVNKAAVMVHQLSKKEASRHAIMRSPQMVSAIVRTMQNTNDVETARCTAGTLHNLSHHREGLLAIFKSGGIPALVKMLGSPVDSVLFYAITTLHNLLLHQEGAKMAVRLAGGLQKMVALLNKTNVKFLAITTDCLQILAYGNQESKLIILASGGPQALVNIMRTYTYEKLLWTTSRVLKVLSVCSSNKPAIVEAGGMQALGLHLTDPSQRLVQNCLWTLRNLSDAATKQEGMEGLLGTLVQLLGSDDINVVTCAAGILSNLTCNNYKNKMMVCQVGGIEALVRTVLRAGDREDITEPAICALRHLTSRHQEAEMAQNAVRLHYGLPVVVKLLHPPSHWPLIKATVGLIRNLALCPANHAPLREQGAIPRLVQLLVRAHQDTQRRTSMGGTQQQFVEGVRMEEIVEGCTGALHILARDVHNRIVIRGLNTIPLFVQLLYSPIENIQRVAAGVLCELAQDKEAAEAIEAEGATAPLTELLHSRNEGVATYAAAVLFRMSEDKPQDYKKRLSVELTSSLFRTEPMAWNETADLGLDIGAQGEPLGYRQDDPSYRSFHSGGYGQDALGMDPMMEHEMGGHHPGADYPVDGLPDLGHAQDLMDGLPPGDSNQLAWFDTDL
# UniProt O00519, whole entry: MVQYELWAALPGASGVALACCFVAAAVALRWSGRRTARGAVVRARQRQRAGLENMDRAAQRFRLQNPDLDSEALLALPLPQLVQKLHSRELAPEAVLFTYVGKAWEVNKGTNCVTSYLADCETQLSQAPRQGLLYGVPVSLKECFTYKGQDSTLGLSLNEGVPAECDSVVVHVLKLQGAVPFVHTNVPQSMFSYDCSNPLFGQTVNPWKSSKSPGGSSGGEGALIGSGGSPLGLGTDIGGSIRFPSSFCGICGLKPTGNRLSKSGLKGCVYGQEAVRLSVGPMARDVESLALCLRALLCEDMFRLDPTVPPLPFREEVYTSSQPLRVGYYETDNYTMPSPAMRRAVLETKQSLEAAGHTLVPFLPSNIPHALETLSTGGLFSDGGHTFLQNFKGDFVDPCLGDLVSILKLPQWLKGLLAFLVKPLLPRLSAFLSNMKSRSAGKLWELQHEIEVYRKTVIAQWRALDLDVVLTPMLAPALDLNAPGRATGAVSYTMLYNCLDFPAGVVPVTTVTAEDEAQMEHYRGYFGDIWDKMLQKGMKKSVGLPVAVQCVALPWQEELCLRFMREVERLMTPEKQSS
# Protocols differ between the studies behind these lines. “And” joins repeats or separate records; there may be more than shown. ± marks the error that the study gave.
# GRM4: Metabotropic glutamate receptor 4 (GRM4, Homo sapiens, UniProt Q14833)
# MAPK8: Mitogen-activated protein kinase 8 (MAPK8, Homo sapiens, UniProt P45983)
# GLP1R: Glucagon-like peptide 1 receptor (GLP1R, Homo sapiens, UniProt P43220)
# E3 ubiquitin-protein ligase NEDD4: E3 ubiquitin-protein ligase NEDD4 (Homo sapiens, UniProt P46934)
# Grm2: Metabotropic glutamate receptor 2 (Grm2, Rattus norvegicus, UniProt P31421)
# RPA1 N-terminal domain: Replication protein A 70 kDa DNA-binding subunit, N-terminal domain (RPA1, Homo sapiens, UniProt P27694)
SMILES,target,test,test system,conditions,how to read,measurement,result
O=C(Nc1ccccc1F)C12CC1/C(=N\O)c1ccccc1O2 (stereo not shown),GRM4,"positive allosteric modulator, calcium mobilization",CHO expressing Gqi5,"concentration not given, together with: glutamate EC20",reference: glutamate 1 mM,response,122 ± 4.3%
CC(C)(C)Nc1c(-c2ccc3c(c2)CN(C2CCC(=O)NC2=O)C3=O)nc2ccccn12 (stereo not shown),"WEE1/CRBN (Homo sapiens, UniProt P30291+Q96SW2)","degrader, HiBiT",Jurkat,5 h,,Dmax,> 98%
Nc1nc(SCc2ccc(Cl)cc2)nn1S(=O)(=O)c1cccc2c1CCCC2,"Lysophospholipase-like protein 1 (Mus musculus, UniProt Q3UFF7)","activator, gel-based ABPP FP-rhodamine",,,reference: DMSO,probe labelling,2.5 fold
C/C=C/Cn1c(Cc2cc(OC)c(OC)c(OC)c2)nc2c(N)ncnc21,"Heat shock protein HSP 90-alpha, N-terminal domain (HSP90AA1, Homo sapiens, UniProt P07900)",isothermal titration calorimetry,,"298 K, N-terminal domain",,TΔS,-3.15 ± 0.23 kcal/mol
Cc1cc(NC(=O)c2cccc(NC(=O)C3=CC(C)(C)CC3=O)c2)ccc1Nc1nccc(-c2cccnc2)n1,MAPK8,"kinase activity, inhibitor",,"0.1829 µM, unit not given, together with: 10 mM GSH",reference: DMSO,remaining activity,0.594
CSc1ccccc1Nc1c(C(=O)O)ccnc1C(=O)O,"Egl nine homolog 1 (EGLN1, Homo sapiens, UniProt Q9GZT9)","inhibitor, HTRF",,400 µM,,remaining activity,100%
CCOc1ccc(C(=O)C2=C(O)C(=O)N(CCCN3CCOCC3)C2c2cc(OC)ccc2OC)cc1 (stereo not shown),"FPR1 (Homo sapiens, UniProt P21462)","fMLF-induced calcium mobilization, antagonist",HL-60 expressing FPR1,concentration not given,,antagonist activity,inactive
c1ccc2c(CCNCCSSCCNCCc3c[nH]c4ccccc34)c[nH]c2c1,"G6PD (Homo sapiens, UniProt P11413, R459L)","enzyme activity, activator",,Canton mutant,reference: no compound,maximal activation,~1.6 fold
COC(=O)[C@@]1(C)C=C(C(=O)Nc2cccc(C(=O)NC34CC(Nc5nccc(-c6cccnc6)n5)(C3)C4)c2)C(=O)CC1,MAPK8,"kinase activity, inhibitor",,"4.938 µM, together with: 10 mM GSH",,remaining activity,0.0419 fraction of control
Cc1ccc(S(=O)(=O)OCCc2cn(CCc3c(C)[nH]c4cc(Cl)cc(Cl)c34)nn2)cc1,GLP1R,"cAMP accumulation, positive allosteric modulator, HTRF",,"0.6 µM, purified compound, together with: GLP-1(9-36) at EC20",reference: BETP,Emax,106 ± 3%
CCOC(=O)/C=C/CNCCCN1c2ccccc2CCc2ccccc21,E3 ubiquitin-protein ligase NEDD4,"inhibitor, Ub-TR-FRET",,"0.4115 µM, 1 h preincubation, HECT domain, together with: ATP 2 mM",higher = more ubiquitination,ubiquitination TR-FRET signal AUC,126000 a.u. and 128000 a.u.
CN(Cc1cccnc1)c1ccc2c(c1)c(=O)c(C(N)=O)cn2-c1ccc(F)cc1,Grm2,"calcium mobilization, negative allosteric modulator",,"30 µM, together with: glutamate 100 µM",reference: glutamate maximum,response,2.39 ± 0.13%
CCOC(=O)/C=C/CNCCCCN1c2ccccc2CCc2ccc(Cl)cc21,E3 ubiquitin-protein ligase NEDD4,"inhibitor, Ub-TR-FRET",,"0.04572 µM, 1 h preincubation, HECT domain, together with: ATP 2 mM",higher = more ubiquitination,ubiquitination TR-FRET signal AUC,88000 a.u. and 142000 a.u. and 94600 a.u. and 127000 a.u. and 93400 a.u. and 92600 a.u.
Cc1ccc(C(=O)Nc2ccccc2C(=O)O)cc1S(=O)(=O)Nc1ccc(Cl)c(Cl)c1,RPA1 N-terminal domain,"binding, fluorescence polarisation competition",,together with: FITC-ATRIP probe,,ligand efficiency,0.23
CCOC(=O)/C=C/CNCCCN1c2ccccc2CCc2ccc([N+](=O)[O-])cc21,E3 ubiquitin-protein ligase NEDD4,"inhibitor, Ub-TR-FRET",,"0.1372 µM, 1 h preincubation, HECT domain, together with: ATP 2 mM",higher = more ubiquitination,ubiquitination TR-FRET signal AUC,145000 a.u. and 146000 a.u.
CC(C)(Cn1cc(-c2ccc(S(C)(=O)=O)cc2)nn1)c1c[nH]c2ccccc12,GLP1R,"cAMP accumulation, positive allosteric modulator, HTRF",,"0.6 µM, purified compound, together with: GLP-1(9-36) at EC20",reference: BETP,Emax,112 ± 6%
Cc1ccc(F)cc1S(=O)(=O)n1nc(SCc2ccccc2)nc1N,"LYPLAL1 (Homo sapiens, UniProt Q5VWZ2)","activator, gel-based ABPP",purified protein,,reference: DMSO,FP-rhodamine labelling,1.2 fold
CC(=O)N1CCN(c2ccc(Nc3ncc4c(n3)N(C)C(=O)N(c3cc(NC(=O)c5ccc(CN6CCC(N(C)C)C6)c(C(F)(F)F)c5)ccc3C)C4)cn2)CC1 (stereo not shown),"FGFR4/Transcription factor ETV6 (Homo sapiens, UniProt P22455+P41212, N535K)",cell proliferation,Ba/F3 TEL-FGFR4 N535K,72 h,,GI50,12 nM
O=C(O)c1cc(C(=O)N[C@@H](CS)C(=O)O)cc([C@H]2CCN[C@@H]2C(=O)O)c1,"Glutamate receptor ionotropic, kainate 1 (Rattus norvegicus, UniProt P22756)",radioligand binding,Sf9 membranes,"10 µM, homomeric receptor, together with: [3H]SYM2081",,specific binding,80 ± 2%
COc1ccc(NC(=O)CN2CCCN(S(=O)(=O)c3ccc(Cl)c(Cl)c3)CC2)c(OC)c1,GRM4,"calcium mobilization, positive allosteric modulator",CHO cells with Gqi5,together with: glutamate,reference: PHCCC maximal response,maximal response,24.3 ± 1.5%
O=C(Nc1ccccc1C(=O)O)c1cccc(S(=O)(=O)Nc2ccc(Cl)c(Cl)c2)c1,RPA1 N-terminal domain,"binding, fluorescence polarisation competition",,together with: FITC-ATRIP probe,,ligand efficiency,0.22
COc1ccc(NC(=O)CN2CCCN(S(=O)(=O)c3ccc(C)cc3)CC2)c(OC)c1,GRM4,"calcium mobilization, positive allosteric modulator",CHO cells with Gqi5,together with: glutamate,reference: PHCCC maximal response,maximal response,48.7%
CC(C(=O)/C=C/c1ccc(O)c(OC(F)(F)F)c1)C(=O)/C=C/c1ccc(O)c(OC(F)(F)F)c1,"APP (Homo sapiens, UniProt P05067)","SDS-PAGE western blot, item: Aβ1-42 species 75-200 kDa",,"30 µM, 24 h, 37 °C, together with: Aβ 10 µM",reference: DMSO control,Aβ band density,437 ± 100%
Cc1cc(-n2cc(C(N)=O)c(=O)c3cc(CCc4cnc(C)nc4)ccc32)sn1,Grm2,"calcium mobilization, negative allosteric modulator",,"30 µM, together with: glutamate 100 µM",reference: glutamate maximum,response,1.2 ± 0.5%
Cc1cccc(-c2noc(-c3cn(CC(=O)NCc4ccc5c(c4)OCO5)c4nc(C)ccc4c3=O)n2)c1,"Catenin beta-1, residues 141-305 (CTNNB1, Homo sapiens, UniProt P35222)",isothermal titration calorimetry,,"concentration not given, 25 °C",,binding stoichiometry,1.12
O=C(OC(C(F)(F)F)C(F)(F)F)N1CCc2cc(Br)ccc2C1,"FAAH (Homo sapiens, UniProt O00519)","enzyme activity, inhibitor, fluorescence AAMCA substrate",,1 µM,,activity,inactive
CSCC[C@H](NC(=O)c1ccccc1N)C(=O)N[C@H](C(=O)N[C@@H](C)C(=O)N[C@@H](C)C(=O)N[C@@H](CC(C)C)C(=O)N[C@@H](CCCCN)C(=O)N[C@H](C(=O)N[C@@H](CCCCNc1ccc([N+](=O)[O-])cc1[N+](=O)[O-])C(N)=O)[C@@H](C)O)[C@@H](C)O,"Mitochondrial intermediate peptidase (MIPEP, Homo sapiens, UniProt Q99797)","substrate, FRET peptide hydrolysis",,multiple cleavage sites,,apparent kcat,0.19 s⁻¹
COCCOCCOCCOC(=O)C(C#N)=Cc1ccc(N(C)C)cc1OC,"Amyloid-beta precursor protein, aggregated Aβ42 (APP, Homo sapiens, UniProt P05067)","fluorescence after Aβ binding, fluorescence spectroscopy",PBS,"4 µM, together with: aggregated Aβ(1-42) 5 µM",,emission maximum,469 nm
CC(=O)NCCCC[C@H](NC(C)=O)C(=O)Nc1ccc2c(C)cc(=O)oc2c1,"HDAC6 (Homo sapiens, UniProt Q9UBN7)","deacetylation, substrate",,"25 °C, together with: 10 to 50 nM enzyme",,kcat/KM,19000 ± 7000 M⁻¹ s⁻¹
N#Cc1cnc(Nc2nc3ccccc3o2)nc1-c1cccc2ccccc12,"Grm5 (Rattus norvegicus, UniProt P31424)","calcium mobilization, negative allosteric modulator",,together with: glutamate EC80,reference: glutamate maximum,maximal response,40 ± 12%
Fc1cccc(/C=C/c2c[nH]c3ccc(F)cc23)c1,"Amyloid-beta precursor protein, Aβ1-40 (APP, Homo sapiens, UniProt P05067)","Aβ40 aggregation, thioflavin T fluorescence",,25 µM,,inhibition,49%

# For quick reference, copied from above:
SMILES,target,test,test system,conditions,how to read,measurement,result
CCOc1ccc(C(=O)C2=C(O)C(=O)N(CCCN3CCOCC3)C2c2cc(OC)ccc2OC)cc1 (stereo not shown),"FPR1 (Homo sapiens, UniProt P21462)","fMLF-induced calcium mobilization, antagonist",HL-60 expressing FPR1,concentration not given,,antagonist activity,inactive
c1ccc2c(CCNCCSSCCNCCc3c[nH]c4ccccc34)c[nH]c2c1,"G6PD (Homo sapiens, UniProt P11413, R459L)","enzyme activity, activator",,Canton mutant,reference: no compound,maximal activation,~1.6 fold
COC(=O)[C@@]1(C)C=C(C(=O)Nc2cccc(C(=O)NC34CC(Nc5nccc(-c6cccnc6)n5)(C3)C4)c2)C(=O)CC1,MAPK8,"kinase activity, inhibitor",,"4.938 µM, together with: 10 mM GSH",,remaining activity,0.0419 fraction of control
Cc1ccc(S(=O)(=O)OCCc2cn(CCc3c(C)[nH]c4cc(Cl)cc(Cl)c34)nn2)cc1,GLP1R,"cAMP accumulation, positive allosteric modulator, HTRF",,"0.6 µM, purified compound, together with: GLP-1(9-36) at EC20",reference: BETP,Emax,106 ± 3%
